Experimental data pooled from the literature.
A part holds a random share of what one study measured.

Set 1
Cell line: HEK-293T/ACE2
Concentration: concentration not given
Time: 16 (unit not given)
Reference: vehicle
With `Cc1onc(-c2ccccc2)c1-c1ccc(S(N)(=O)=O)cc1` the viability was 104%.
With `CCOc1nc2cccc(C(=O)OC(C)OC(=O)OC3CCCCC3)c2n1Cc1ccc(-c2ccccc2-c2nnn[nH]2)cc1` (stereo not drawn) the viability was 81.8%.
For `CS(=O)(=O)CCNCc1ccc(-c2ccc3ncnc(Nc4ccc(OCc5cccc(F)c5)c(Cl)c4)c3c2)o1`, the viability was 80%.

Set 2
Target: RNA binding protein fox-1 homolog 2, RRM domain, GST-SBP tag (RBFOX2, Homo sapiens, UniProt O43251-10, residues 100-194)
Method: RNA Bind-n-Seq
Form: RNA
Matrix: in vitro
Concentration: 365 nM
Notes: natural RNA segment, single round, ends assumed
Reference: no-protein control
Reading: higher = stronger binding
Construct (chain): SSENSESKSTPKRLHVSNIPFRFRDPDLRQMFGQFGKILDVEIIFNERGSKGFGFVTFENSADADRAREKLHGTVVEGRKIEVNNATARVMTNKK
For `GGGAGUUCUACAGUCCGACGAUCGGUAUCGCUGGGCAGUGGUGGCACACGCCUUUAAUCCCAGCAAUUGGGAGGCAGAGGCAGGUGGAUUUCUAAGUUUGAGGCCAACCUGGUCUACAGAGUGAGUUCCAGGAUGGAAUUCUCGGGUGCCAA`, “RBNS enrichment (R)” read 0.251.
`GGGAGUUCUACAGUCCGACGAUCAGGCGACCGCGGCGCAGCUCCCACCCCGCCCUGCCCGGCCCCGAGCGCUUGCCCGAGGCCAGCGCGCUCCCCGCGCCAGGACUCCAUUAAAGCCGCUAAGACGCGCGGGCUGGAAUUCUCGGGUGCCAA` — result for “RBNS enrichment (R)”: 0.379.
Under “RBNS enrichment (R)”, `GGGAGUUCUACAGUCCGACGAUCCUUGAUCUUAUUUAAGGUCUCCAAAUAGCCCCCACCACACUUAGAACGUGUGUUUUCUUAGUGUUAGAAGCCAGGCCCUGAGUCCCCAGCACUCACCUGAACUGUGGCUGUGGAAUUCUCGGGUGCCAA` is recorded as 0.332.
For `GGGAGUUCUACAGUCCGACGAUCUAUCUGUAUCUAAACCAGAAUAUUUUGGUCAAAUAUAAAACAAUAAUAAAAAAAGUUCUGAUGUCAUAGUGUGGGAUAGGGGCAAUCCCAAGGAAAGGUUAUGGGGUAUGUGGAAUUCUCGGGUGCCAA`, “RBNS enrichment (R)” read 0.863.
Under “RBNS enrichment (R)”, `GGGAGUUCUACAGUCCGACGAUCCUCGCCCCCCCCCAAGUUGCCAGUGUUUCUGAAUGUCCUCGUGUCUGUGGUUGCGCUCCUUUCCCCAGGAAAAAGAAAAGAAAAAGAAAUUCGCAUGUUUAAUGUGACUUUGGAAUUCUCGGGUGCCAA` is recorded as 9.16.
`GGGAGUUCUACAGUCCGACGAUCCCCAGGAUCUCAGCCCCAGGCUGGUUGUUUCUACAAAUCUCUCUCAAAUGUAUUAUUUUGGUGACAAAAAUGAAGGAGCUUUGUAAAUUUUUUUUAAAAUUAUGAAUCAUUGGAAUUCUCGGGUGCCAA` — result for “RBNS enrichment (R)”: 0.76.
`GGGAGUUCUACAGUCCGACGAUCCUCCAAGAGAUGAGGCCUCAGUCCAGAACCCAUCUUCAUACAAAAGCUUCAGUAGCCUGUAGGCGGCUGUACUUGGAACAGACAUUUGGCUGCCAGUAGCAGGCCUGGCAUGGAAUUCUCGGGUGCCAA`: “RBNS enrichment (R)” 0.489.
`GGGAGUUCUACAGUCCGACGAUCAGCCUUUUCCUAUCCACUUCCCUUACCAAGUGUAUCCAAGCGUGCACCCACCUCCUCAUUGGAUGGCUCCCUCCAUGCACUGACCCUCUGCCUGCCUUUGUACCUCACUCUGGAAUUCUCGGGUGCCAA` — result for “RBNS enrichment (R)”: 2.03.

Set 3
Target: Histone acetyltransferase KAT6A, winged helix 1, GST fusion (KAT6A, Homo sapiens, UniProt Q92794, residues 1-85)
Method: protein binding microarray
Form: double-stranded DNA, one strand shown
Matrix: in vitro
Concentration: not given
Notes: 8-mer, flanks averaged, mean of 2 arrays, mostly near background
Reference: not given
Reading: higher = stronger binding
Residues (chain): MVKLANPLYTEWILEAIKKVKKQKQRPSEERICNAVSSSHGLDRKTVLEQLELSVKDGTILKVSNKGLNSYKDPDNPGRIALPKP
With `ACGTCTAA` the E-score was -0.0176.
The E-score of `AAGTAACT` is reported as -0.027.
With `GTATACCA` the E-score was -0.0929.
The E-score of `ATAGCATG` is reported as -0.0858.
`AAACCGGG` has an E-score of 0.256.
With `AAGTATCT` the E-score was -0.231.
The E-score of `ATTAAACA` is reported as -0.155.
`GGTCAAGA` has an E-score of -0.181.

Set 4
Target: Replicase polyprotein 1ab, nsp13 helicase (rep, Severe acute respiratory syndrome coronavirus 2, UniProt P0DTD1)
Action: inhibitor
Concentration: 20 µM
`O=C(O)c1cc(O)c2ccc(Cl)cc2n1` gave an inhibition of -1.13%.
`Cc1ccc(-c2csc3ncnc(SCCC(=O)O)c23)cc1` gave an inhibition of 13.1%.
For `COc1ccc2c(c1OC)C(=O)O[C@@H]2[C@H]1c2c(cc3c(c2OC)OCO3)CCN1C`, the inhibition was 5.8%.
For `CC[C@H](NC(=O)c1c(O)c(-c2ccccc2)nc2ccccc12)c1ccccc1`, the inhibition was 14.6%.
For `COCCN1CCN(Cc2ccc(-c3n[nH]c4c3C(=O)c3c(NC(=O)NN5CCOCC5)cccc3-4)cc2)CC1`, the inhibition was 3.23%.
`N=C(N)NCCCC[C@@H]1NC(=O)CCSSC[C@@H](C(N)=O)NC(=O)[C@@H]2CCCN2C(=O)[C@H](Cc2c[nH]c3ccccc23)NC(=O)[C@H](CC(=O)O)NC(=O)CNC1=O` gave an inhibition of -4.22%.
With `O=C1S/C(=C\c2ccc(OCc3cccc(B(O)O)c3)cc2)C(=O)N1Cc1ccc(F)cc1` the inhibition was 3.95%.
For `CCN(CC)C(C)CN1c2ccccc2Sc2ccccc21` (stereo not drawn), the inhibition was 2.19%.
For `CC(C)(C(=O)NCC(F)(F)C(F)(F)F)C(=O)N[C@@H]1C(=O)Nc2ccccc2-c2ccccc21`, the inhibition was 5.77%.
With `CCCCCCCCCCCCCCCC(=O)OC[C@H](COP(=O)([O-])OCC[N+](C)(C)C)OC(=O)CCCCCCCCCCCCCCC` the inhibition was 9.72%.
`CNC(=O)[C@@H](NC(=O)[C@H](CC(C)C)[C@H](O)C(=O)NO)C(C)(C)C` gave an inhibition of 1.78%.
`O=C(c1ccccc1)c1ccc2n1CCC2C(=O)O` (stereo not drawn) gave an inhibition of 5.12%.
`Cc1c(N)nc([C@H](CC(N)=O)NC[C@H](N)C(N)=O)nc1C(=O)N[C@H](C(=O)N[C@H](C)[C@@H](O)[C@H](C)C(=O)N[C@H](C(=O)NCCc1nc(-c2nc(C(=O)NCCC[S+](C)C)cs2)cs1)[C@@H](C)O)[C@@H](O[C@@H]1O[C@@H](CO)[C@@H](O)[C@H](O)[C@@H]1O[C@H]1O[C@H](CO)[C@@H](O)[C@H](OC(N)=O)[C@@H]1O)c1cnc[nH]1` has an inhibition of 4.95%.
With `CC(CC(c1ccccc1)c1ccccc1)NC(C)(C)C` (stereo not drawn) the inhibition was -1.24%.
For `COc1ccc([C@]2(C#N)CC[C@@H](C(=O)O)CC2)cc1OC1CCCC1`, the inhibition was 1.75%.
For `NCCCNCCCCNCCCN`, the inhibition was 9.02%.
`CCCCS(=O)(=O)N[C@@H](Cc1ccc(OCCCCC2CCNCC2)cc1)C(=O)O` gave an inhibition of 4.52%.

For quick reference, copied from above (set 1):
With `Cc1onc(-c2ccccc2)c1-c1ccc(S(N)(=O)=O)cc1` the viability was 104%.
For `CS(=O)(=O)CCNCc1ccc(-c2ccc3ncnc(Nc4ccc(OCc5cccc(F)c5)c(Cl)c4)c3c2)o1`, the viability was 80%.
With `CCOc1nc2cccc(C(=O)OC(C)OC(=O)OC3CCCCC3)c2n1Cc1ccc(-c2ccccc2-c2nnn[nH]2)cc1` (stereo not drawn) the viability was 81.8%.
